Assay results from different studies.
A part holds a random share of what one study measured.

Sample 1 — technique: universal PBM; molecule type: double-stranded DNA, one strand shown; matrix: in vitro; concentration: not given; reading: higher = stronger binding
Target: Sal-like protein 4, full length isoform B (SALL4, Homo sapiens, UniProt Q9UJQ4-2, residues 1-616)
Notes: 8-mer, flanks averaged, mean of replicates
Residues (chain): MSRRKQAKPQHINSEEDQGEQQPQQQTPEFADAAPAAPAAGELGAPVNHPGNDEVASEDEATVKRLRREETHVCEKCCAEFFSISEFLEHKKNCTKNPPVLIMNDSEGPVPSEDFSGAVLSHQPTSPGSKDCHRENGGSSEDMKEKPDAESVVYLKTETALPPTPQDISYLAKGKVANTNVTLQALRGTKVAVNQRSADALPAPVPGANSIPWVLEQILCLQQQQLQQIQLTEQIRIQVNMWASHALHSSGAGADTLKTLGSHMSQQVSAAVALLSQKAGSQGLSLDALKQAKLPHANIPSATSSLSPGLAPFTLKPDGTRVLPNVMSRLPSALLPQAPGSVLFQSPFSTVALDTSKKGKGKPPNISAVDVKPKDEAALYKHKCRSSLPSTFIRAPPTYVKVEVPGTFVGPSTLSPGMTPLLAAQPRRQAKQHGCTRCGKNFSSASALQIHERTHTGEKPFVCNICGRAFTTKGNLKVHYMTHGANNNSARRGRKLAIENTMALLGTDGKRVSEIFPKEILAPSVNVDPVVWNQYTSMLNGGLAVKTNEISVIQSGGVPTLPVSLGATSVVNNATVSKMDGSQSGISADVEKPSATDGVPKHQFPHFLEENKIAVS
With `AAGCCGTA` the E-score was 0.0804.
`ATCGACAA` has an E-score of 0.121.
`AGGGTTGA` has an E-score of -0.0727.
`ATCCCGTA` has an E-score of -0.0483.
`GAAAACGA` has an E-score of -0.0634.
For `CGGTGCCA`, the E-score was -0.354.

Sample 2 — technique: protein binding microarray; molecule type: double-stranded DNA, one strand shown; matrix: in vitro; concentration: not given; relative to: not given; reading: higher = stronger binding
Target: Histone acetyltransferase KAT6A, winged helix 1, GST fusion (KAT6A, Homo sapiens, UniProt Q92794, residues 1-85)
Notes: 8-mer, flanks averaged, mean of 2 arrays, mostly near background
Residues (chain): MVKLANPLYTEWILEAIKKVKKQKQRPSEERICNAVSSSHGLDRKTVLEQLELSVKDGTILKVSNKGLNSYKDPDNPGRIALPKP
`TCTTAACA` gave an E-score of -0.178.
For `GAGAATCA`, the E-score was -0.0733.
The E-score of `GGGTATTA` is reported as 0.0828.
`AACGAGCA` has an E-score of -0.171.
`CATCCAGA` has an E-score of -0.127.
For `TGAGTGCA`, the E-score was -0.0932.

Sample 3 — technique: protein-binding microarray; molecule type: double-stranded DNA, one strand shown; matrix: in vitro; concentration: 2540 nM top; notes: 60-bp whole probe; together with: salmon DNA 0.4 mg/ml; relative to: random background probes; reading: higher = stronger binding
Target: Interferon regulatory factor 3, full length, phosphomimetic (IRF3, Homo sapiens, UniProt Q14653, residues 1-427, S386D/S396D/S398D/S402D/T404D/S405D)
Residues (chain): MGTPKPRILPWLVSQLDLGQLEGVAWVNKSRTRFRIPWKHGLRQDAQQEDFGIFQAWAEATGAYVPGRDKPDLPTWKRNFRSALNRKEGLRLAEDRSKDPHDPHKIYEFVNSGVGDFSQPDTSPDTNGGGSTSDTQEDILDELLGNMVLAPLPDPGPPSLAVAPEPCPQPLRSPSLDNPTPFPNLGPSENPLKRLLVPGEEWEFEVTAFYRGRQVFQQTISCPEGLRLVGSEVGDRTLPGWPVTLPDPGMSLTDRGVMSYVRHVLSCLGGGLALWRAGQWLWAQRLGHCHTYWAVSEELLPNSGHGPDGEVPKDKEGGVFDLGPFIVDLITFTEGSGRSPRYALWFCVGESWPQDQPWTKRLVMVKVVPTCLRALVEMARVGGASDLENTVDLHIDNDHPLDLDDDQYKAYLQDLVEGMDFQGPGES
Under “fitted relative affinity”, `GCCTAGCACGACGGACAGCTTATCCTGACGTGCTAGGTCTTGATTCGCTTGACGCTGCTG` is recorded as -0.292 z-score.
For `GCCTAGCACTCAGCTTCCTCTTTCTCACTGTGCTAGGTCTTGATTCGCTTGACGCTGCTG`, “fitted relative affinity” read 1.78 z-score.
For `GCCTAGCACGAAGGTTTCGGGTTTCGGGACGTGCTAGTCTTGATTCGCTTGACGCTGCTG`, “fitted relative affinity” read 5.59 z-score.
For `GCCTAGCACTTAGGGCTCGGTTTCGGTTAGTGCTAGGTCTTGATTCGCTTGACGCTGCTG`, “fitted relative affinity” read 4.39 z-score.

Further values, each from its own experiment
The fold induction of `PhoQ, residues 284 288 289 292 302 303 GASLAW` is reported as 7.15 (PhoP, residues 12 14 15 18 19 YHFSH (Escherichia coli, UniProt P23836); Sort-seq, measured: YFP reporter; E. coli; PhoQ-PhoP variant library, together with: 10 µM Mg2+; relative to: high Mg2+ state, higher = stronger signaling).

A few entries again (sample 2):
The E-score of `GGGTATTA` is reported as 0.0828.
